# Measurements pooled from the literature.
# Each numbered part is a random draw from the data of one study; scales do not carry over between parts. Changes are numbered by the printed parent chain.
# Chain of UniProt P51955 (whole entry, looked up): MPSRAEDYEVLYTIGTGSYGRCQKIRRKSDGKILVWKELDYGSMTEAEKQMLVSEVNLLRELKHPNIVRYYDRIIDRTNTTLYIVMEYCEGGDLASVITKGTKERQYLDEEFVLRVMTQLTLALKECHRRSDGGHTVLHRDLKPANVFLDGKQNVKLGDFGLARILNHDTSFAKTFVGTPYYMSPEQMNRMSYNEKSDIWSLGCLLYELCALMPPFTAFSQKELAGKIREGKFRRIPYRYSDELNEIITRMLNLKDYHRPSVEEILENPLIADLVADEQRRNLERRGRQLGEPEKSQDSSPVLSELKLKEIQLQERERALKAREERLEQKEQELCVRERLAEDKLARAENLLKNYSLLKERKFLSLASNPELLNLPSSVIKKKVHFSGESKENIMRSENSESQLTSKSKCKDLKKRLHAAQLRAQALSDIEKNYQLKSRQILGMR
# Chain of UniProt P36897 (whole entry, looked up): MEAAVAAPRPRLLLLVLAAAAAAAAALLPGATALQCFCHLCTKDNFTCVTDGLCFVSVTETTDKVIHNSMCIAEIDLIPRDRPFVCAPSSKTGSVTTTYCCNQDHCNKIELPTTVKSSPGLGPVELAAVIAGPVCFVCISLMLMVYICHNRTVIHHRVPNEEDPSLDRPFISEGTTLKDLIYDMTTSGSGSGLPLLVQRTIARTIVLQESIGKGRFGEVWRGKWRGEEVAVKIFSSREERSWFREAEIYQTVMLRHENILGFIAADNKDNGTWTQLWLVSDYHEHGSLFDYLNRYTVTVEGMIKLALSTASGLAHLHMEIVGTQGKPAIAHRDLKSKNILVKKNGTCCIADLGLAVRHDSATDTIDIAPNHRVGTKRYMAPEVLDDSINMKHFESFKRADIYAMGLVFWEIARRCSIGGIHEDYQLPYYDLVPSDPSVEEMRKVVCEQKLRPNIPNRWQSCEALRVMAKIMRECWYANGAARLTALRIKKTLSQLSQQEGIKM
# Chain of UniProt P05771 (whole entry, looked up): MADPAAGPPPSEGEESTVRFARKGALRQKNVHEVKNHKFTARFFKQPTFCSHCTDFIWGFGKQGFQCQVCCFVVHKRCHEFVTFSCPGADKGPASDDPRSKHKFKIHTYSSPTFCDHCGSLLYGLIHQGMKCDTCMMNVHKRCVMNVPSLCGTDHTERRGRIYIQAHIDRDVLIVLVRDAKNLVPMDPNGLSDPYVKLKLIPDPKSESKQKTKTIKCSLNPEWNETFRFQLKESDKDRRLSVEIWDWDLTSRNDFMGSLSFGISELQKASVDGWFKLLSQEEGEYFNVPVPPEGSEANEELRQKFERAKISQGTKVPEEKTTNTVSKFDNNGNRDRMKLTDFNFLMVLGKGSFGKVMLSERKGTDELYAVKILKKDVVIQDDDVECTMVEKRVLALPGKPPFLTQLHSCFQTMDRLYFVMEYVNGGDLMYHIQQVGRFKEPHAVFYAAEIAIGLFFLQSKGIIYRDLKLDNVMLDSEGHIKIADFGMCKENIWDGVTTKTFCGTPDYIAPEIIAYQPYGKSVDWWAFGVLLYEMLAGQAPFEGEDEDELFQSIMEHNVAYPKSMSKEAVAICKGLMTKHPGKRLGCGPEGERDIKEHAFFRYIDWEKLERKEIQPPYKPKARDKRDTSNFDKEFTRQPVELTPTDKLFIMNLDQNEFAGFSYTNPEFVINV
# Chain of UniProt P16234 (whole entry, looked up): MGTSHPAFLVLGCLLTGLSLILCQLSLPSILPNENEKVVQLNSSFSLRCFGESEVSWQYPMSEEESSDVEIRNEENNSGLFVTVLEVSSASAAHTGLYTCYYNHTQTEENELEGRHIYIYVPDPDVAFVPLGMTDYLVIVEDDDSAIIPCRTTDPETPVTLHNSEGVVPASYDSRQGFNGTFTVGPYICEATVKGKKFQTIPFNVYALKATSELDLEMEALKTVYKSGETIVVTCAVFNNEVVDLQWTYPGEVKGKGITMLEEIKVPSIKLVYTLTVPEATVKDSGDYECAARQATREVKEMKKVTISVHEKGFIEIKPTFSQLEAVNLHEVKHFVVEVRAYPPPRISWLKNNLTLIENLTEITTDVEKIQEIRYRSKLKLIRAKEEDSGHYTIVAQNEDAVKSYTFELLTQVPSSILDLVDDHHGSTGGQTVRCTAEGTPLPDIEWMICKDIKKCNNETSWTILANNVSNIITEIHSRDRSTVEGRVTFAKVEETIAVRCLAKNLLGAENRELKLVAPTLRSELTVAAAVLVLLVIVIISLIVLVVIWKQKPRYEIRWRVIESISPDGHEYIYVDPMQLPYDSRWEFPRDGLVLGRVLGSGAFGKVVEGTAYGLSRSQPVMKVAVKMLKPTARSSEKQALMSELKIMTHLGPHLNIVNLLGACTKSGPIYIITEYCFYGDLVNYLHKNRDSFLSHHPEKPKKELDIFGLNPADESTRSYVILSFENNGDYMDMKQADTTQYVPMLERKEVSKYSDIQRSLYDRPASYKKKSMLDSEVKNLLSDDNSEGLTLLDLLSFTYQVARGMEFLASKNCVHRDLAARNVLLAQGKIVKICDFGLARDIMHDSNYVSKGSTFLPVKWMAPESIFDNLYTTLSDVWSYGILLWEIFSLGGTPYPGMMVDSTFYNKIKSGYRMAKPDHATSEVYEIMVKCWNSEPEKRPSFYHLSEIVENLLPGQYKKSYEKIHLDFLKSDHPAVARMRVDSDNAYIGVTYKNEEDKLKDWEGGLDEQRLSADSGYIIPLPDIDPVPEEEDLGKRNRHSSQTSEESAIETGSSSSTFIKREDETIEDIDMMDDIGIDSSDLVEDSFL
# Chain of UniProt O95747 (whole entry, looked up): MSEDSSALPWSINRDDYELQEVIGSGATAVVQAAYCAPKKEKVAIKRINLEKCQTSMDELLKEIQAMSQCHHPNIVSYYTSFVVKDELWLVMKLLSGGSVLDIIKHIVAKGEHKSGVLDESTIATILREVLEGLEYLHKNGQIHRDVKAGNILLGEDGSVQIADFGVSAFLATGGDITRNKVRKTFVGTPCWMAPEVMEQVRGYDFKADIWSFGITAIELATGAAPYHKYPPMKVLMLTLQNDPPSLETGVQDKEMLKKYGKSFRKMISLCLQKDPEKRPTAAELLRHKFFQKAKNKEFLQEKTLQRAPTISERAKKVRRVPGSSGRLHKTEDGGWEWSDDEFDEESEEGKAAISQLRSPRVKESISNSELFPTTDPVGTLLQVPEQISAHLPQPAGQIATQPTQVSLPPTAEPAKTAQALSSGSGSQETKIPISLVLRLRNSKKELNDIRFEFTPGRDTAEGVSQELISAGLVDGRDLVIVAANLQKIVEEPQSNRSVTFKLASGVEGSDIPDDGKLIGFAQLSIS
# Chain of UniProt Q96RR4 (whole entry, looked up): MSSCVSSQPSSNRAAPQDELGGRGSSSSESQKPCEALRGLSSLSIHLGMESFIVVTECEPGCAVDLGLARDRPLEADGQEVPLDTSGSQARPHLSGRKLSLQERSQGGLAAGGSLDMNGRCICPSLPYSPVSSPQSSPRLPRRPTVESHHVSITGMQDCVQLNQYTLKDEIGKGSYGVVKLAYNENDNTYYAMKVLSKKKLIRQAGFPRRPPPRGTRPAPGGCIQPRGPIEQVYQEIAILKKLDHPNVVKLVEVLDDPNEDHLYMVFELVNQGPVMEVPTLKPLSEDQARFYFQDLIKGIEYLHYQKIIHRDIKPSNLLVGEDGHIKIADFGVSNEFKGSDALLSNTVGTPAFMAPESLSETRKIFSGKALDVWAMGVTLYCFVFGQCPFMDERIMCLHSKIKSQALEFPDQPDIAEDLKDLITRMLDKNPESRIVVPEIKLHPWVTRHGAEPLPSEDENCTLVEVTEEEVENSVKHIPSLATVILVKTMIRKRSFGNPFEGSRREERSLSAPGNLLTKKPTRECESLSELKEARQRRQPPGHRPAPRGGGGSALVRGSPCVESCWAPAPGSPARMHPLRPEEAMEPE
# Chain of UniProt Q13557 (whole entry, looked up): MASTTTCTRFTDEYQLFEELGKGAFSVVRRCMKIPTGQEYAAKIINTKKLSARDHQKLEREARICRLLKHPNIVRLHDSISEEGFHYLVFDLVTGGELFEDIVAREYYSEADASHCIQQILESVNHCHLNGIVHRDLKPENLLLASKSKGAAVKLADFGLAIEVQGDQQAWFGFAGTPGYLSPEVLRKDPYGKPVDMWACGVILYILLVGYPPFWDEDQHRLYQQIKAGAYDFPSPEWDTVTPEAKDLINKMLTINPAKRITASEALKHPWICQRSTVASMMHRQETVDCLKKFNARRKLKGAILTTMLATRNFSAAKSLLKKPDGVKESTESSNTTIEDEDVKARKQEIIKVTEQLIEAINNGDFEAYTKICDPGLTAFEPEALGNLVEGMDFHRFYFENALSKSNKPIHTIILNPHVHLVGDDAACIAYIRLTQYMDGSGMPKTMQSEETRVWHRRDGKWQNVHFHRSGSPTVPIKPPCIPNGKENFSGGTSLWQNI
# Chain of UniProt Q9Y6M4 (whole entry, looked up): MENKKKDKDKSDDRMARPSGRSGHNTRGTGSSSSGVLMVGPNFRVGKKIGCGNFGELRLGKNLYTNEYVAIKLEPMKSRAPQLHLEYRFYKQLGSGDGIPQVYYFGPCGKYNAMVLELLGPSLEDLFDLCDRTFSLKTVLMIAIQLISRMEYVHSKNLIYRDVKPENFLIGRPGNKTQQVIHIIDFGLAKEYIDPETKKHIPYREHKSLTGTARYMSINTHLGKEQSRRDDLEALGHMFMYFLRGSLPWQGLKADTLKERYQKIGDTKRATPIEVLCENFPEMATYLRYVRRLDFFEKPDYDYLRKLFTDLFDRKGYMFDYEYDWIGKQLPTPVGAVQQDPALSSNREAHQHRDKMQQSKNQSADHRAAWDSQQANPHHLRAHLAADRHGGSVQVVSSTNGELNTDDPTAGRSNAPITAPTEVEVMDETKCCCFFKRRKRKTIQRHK

# Study 1
# Target: Sal-like protein 4, full length isoform B (SALL4, Homo sapiens, UniProt Q9UJQ4-2, residues 1-616)
# Technique: universal PBM
# Molecule type: double-stranded DNA, one strand shown
# Medium: in vitro
# Concentration: not given
# Setting: 8-mer, flanks averaged, mean of replicates
# Reading: higher = stronger binding
Strand,E-score
CACTAGAC,-0.0246
GGTACCTA,-0.0966
CGTCGCAC,-0.263
CATCGGAC,-0.241
AAAGTTGA,0.142
GGCTCGAC,-0.24
ATAGCCCC,-0.258
GAAAACAA,0.208

# Study 2
# Compound: C[C@H](NC(=O)c1cnc2n1[C@](C)(Cc1ccc(C#N)cc1)C(=O)N2c1cc(Cl)c(F)c(Cl)c1)C(=O)NC1(c2ccccn2)CC1
# Observed: cell-free assay
# Technique: competition with immobilised ligand
# Concentration: 1 µM
target,remaining binding
"PDGFRA (Homo sapiens, UniProt P16234)",100%
"PLK4 (Homo sapiens, UniProt O00444)",88%
"PIP4K2C (Homo sapiens, UniProt Q8TBX8)",100%
"ACVRL1 (Homo sapiens, UniProt P37023)",100%
"TLK2 (Homo sapiens, UniProt Q86UE8)",59%
"Tyrosine-protein kinase ABL1, phosphorylated (ABL1, Homo sapiens, UniProt P00519, H396P)",91%
"CDKL3 (Homo sapiens, UniProt Q8IVW4)",100%
"LRRK2 (Homo sapiens, UniProt Q5S007)",100%
"Mast/stem cell growth factor receptor Kit, autoinhibited (KIT, Homo sapiens, UniProt P10721)",100%
"TGFBR1 (Homo sapiens, UniProt P36897)",82%
"STK17A (Homo sapiens, UniProt Q9UEE5)",100%
"ALK (Homo sapiens, UniProt Q9UM73, L1196M)",100%
"ULK2 (Homo sapiens, UniProt Q8IYT8)",100%
"CSNK1G3 (Homo sapiens, UniProt Q9Y6M4)",100%
"DYRK2 (Homo sapiens, UniProt Q92630)",98%
"NEK2 (Homo sapiens, UniProt P51955)",95%

# Study 3
# Target: ABI1, truncated, D143A, DHFR fusion (Arabidopsis thaliana)
# Technique: DHFR PCA, deep sequencing
# Medium: yeast
# Setting: methotrexate growth selection, single substitutions
# With: (+)-ABA 0.39 µM
# Relative to: wild-type fitted maximum
# Reading: higher = stronger binding
# Starting sequence: PYL1, truncated, DHFR fusion (Arabidopsis thaliana); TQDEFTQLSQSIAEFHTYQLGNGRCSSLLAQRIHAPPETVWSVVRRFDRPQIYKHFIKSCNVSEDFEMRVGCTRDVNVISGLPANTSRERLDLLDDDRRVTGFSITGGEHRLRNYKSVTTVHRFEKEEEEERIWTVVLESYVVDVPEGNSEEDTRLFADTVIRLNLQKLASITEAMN
Variant,relative binding score [%]
V76L,21
V145Y,-15.9
L138W,1.64
R45A,-3.43
F66V,5.25
D96T,-6.66
N61H,64.2
V161P,-1.11

# Study 4
# Compound: C[C@@H](N)[C@H]1CC[C@H](C(=O)Nc2ccncc2)CC1
# Observed: enzyme activity
# Action: inhibitor
# Concentration: 0.5 µM
# Relative to: control
target,remaining activity [%]
"STK10 (Homo sapiens, UniProt O94804)",88.9
"DAPK2 (Homo sapiens, UniProt Q9UIK4)",94.8
"Cyclin-dependent kinase 5, with p25 (CDK5, Homo sapiens, UniProt Q00535)",89.6
"TGFBR2 (Homo sapiens, UniProt P37173)",110
"DAPK1 (Homo sapiens, UniProt P53355)",103
"MAPK9 (Homo sapiens, UniProt P45984)",103
"NEK2 (Homo sapiens, UniProt P51955)",88.7
"Protein kinase C beta type, isoform beta-I (PRKCB, Homo sapiens, UniProt P05771)",101
"STK39 (Homo sapiens, UniProt Q9UEW8)",95.8
"Cyclin-dependent kinase 4, with cyclin D1 (CDK4, Homo sapiens, UniProt P11802)",96.8
"cGMP-dependent protein kinase 1, isoform beta (PRKG1, Homo sapiens, UniProt Q13976)",83.5
"Tyrosine-protein kinase Lyn, isoform B (LYN, Homo sapiens, UniProt P07948)",97.3
"CAMKK2 (Homo sapiens, UniProt Q96RR4)",101
"IKBKE (Homo sapiens, UniProt Q14164)",97.6
"GRK3 (Homo sapiens, UniProt P35626)",93.8
"CAMK2D (Homo sapiens, UniProt Q13557)",90.1
"OXSR1 (Homo sapiens, UniProt O95747)",90.1
"CHEK2 (Homo sapiens, UniProt O96017)",95.6
"TGFBR1 (Homo sapiens, UniProt P36897)",98

# Some of these lines once more (study 2):
target,remaining binding
"PIP4K2C (Homo sapiens, UniProt Q8TBX8)",100%
"ACVRL1 (Homo sapiens, UniProt P37023)",100%
"TLK2 (Homo sapiens, UniProt Q86UE8)",59%
"Tyrosine-protein kinase ABL1, phosphorylated (ABL1, Homo sapiens, UniProt P00519, H396P)",91%
